Assay results collected from several papers.
Lines come from different studies, so protocols differ. “And” joins repeats or separate records; there may be more than shown. Numbers after ± are the reported error.
rep main protease: Replicase polyprotein 1ab, main protease (rep, Severe acute respiratory syndrome coronavirus 2, UniProt P0DTD1)
Matrix protein 2 S31N: Matrix protein 2 (Influenza A virus, UniProt P0DOF5, S31N)

O=C(/C=C/c1ccc(O)cc1)O[C@@H]1[C@@H](O)[C@H](Oc2cc(O)c3c(=O)cc(-c4ccc(O)cc4)oc3c2)O[C@H](CO)[C@H]1O
IC50 (rep main protease; enzyme activity, inhibitor; added: fluorogenic substrate): 65.4 µM and 83.4 µM

CC(C)C(=O)OC[C@H]1O[C@@](C#N)(n2ccc(N)nc2=O)[C@H](O)[C@@H]1O
EC50 (SARS-CoV-2; viral replication; Calu-3, Gamma): 2.6 ± 0.06 µM

NCCCC[C@H](NC(=O)[C@H](CC(=O)O)NC(=O)[C@@H](N)Cc1ccccc1)C(=O)N[C@@H](CO)C(=O)O
IC50 (rep main protease; enzyme activity, inhibitor): 63.2 µM

O=C(NC1CCN(c2ncnc3[nH]cnc23)CC1)c1cccc(S(=O)(=O)Nc2ccc3[nH]ncc3c2)c1
IC50 (Replicase polyprotein 1ab, nsp14 (rep, Severe acute respiratory syndrome coronavirus 2, UniProt P0DTD1)): 3.25 µM

CC(C)C[C@@H]1NC(=O)[C@H](Cc2ccc(O)cc2)NC(=O)[C@H]([C@@H](C)O)NC(=O)[C@H](Cc2c[nH]c3ccccc23)NC(=O)[C@H](CO)NC(=O)[C@H](Cc2ccc(O)cc2)NC(=O)[C@@H](Cc2ccc(O)cc2)NC(=O)CSC[C@@H](C(N)=O)NC(=O)[C@H](CO)NC(=O)[C@H](Cc2c[nH]c3ccccc23)NC(=O)[C@H](Cc2ccc(O)cc2)NC(=O)[C@H](Cc2ccc(O)cc2)NC(=O)[C@H](CC(=O)O)NC(=O)[C@H](CCCNC(=N)N)NC(=O)CNC1=O
IC50 (rep main protease; enzyme activity, inhibitor): > 50 µM

c1nc(CNC23CC4CC(CC(C4)C2)C3)no1
inhibition (Matrix protein 2 S31N; channel activity, inhibitor; 100 µM, S31N mutant): 52%

Cc1cc(C(C#N)c2ccc(Cl)cc2)c(Cl)cc1NC(=O)c1cc(I)cc(I)c1O (stereo not shown)
IC50 (rep main protease; enzyme activity, inhibitor, FRET): 5.3 µM

Cc1ccc(CNC23CC4CC(CC(C4)C2)C3)o1
inhibition (Matrix protein 2 S31N; proton channel activity, inhibitor; Influenzavirus A, S31N mutant; 100 µM): 37%

CC(C)C[C@@H]1NC(=O)[C@H](C(C)C)NC(=O)[C@H](C)NC(=O)[C@H](Cc2ccc(O)cc2)NC(=O)[C@H](CCC(N)=O)NC(=O)[C@H](CC(C)C)NC(=O)[C@@H](Cc2ccc(O)cc2)NC(=O)C[Se]C[C@@H](C(N)=O)NC(=O)[C@H](CCC(=O)O)NC(=O)[C@H](CCCNC(=N)N)NC(=O)[C@H](CCCNC(=N)N)NC(=O)[C@H](CCCCN)NC(=O)[C@H](Cc2c[nH]cn2)NC(=O)[C@H](CCCNC(=N)N)NC1=O
Ki (rep main protease; enzyme activity, inhibitor): 0.017 µM

CC(C)(C)OC(=O)NCCOc1ccc(Cl)cc1C(=O)NCC(=O)Nc1ccc([N+](=O)[O-])cc1Cl
Kd (rep main protease; SPR; 0.164 to 100 µM, 25 °C): no binding

CCCCC(CC)CNC(=N)NC(=N)NCCCCCCNC(=N)NC(=N)NCC(CC)CCCC (stereo not shown)
IC50 (rep main protease; enzyme activity, inhibitor, FRET): 22.8 µM

CC(C)C[C@H](NC(=O)[C@@H](NC(=O)[C@H](C)NC(=O)[C@@H](N)Cc1ccc(O)cc1)C(C)C)C(=O)N[C@@H](CCCNC(=N)N)C(=O)N[C@@H](Cc1c[nH]cn1)C(=O)N[C@@H](CCCCN)C(=O)N[C@@H](CCCNC(=N)N)C(=O)N[C@@H](CCCNC(=N)N)C(=O)N[C@@H](CCC(=O)O)C(=O)N[C@@H](CSCC(=O)N[C@H](Cc1ccc(O)cc1)C(=O)N[C@@H](CC(C)C)C(=O)N[C@@H](CCC(N)=O)C(=O)O)C(N)=O
IC50 (rep main protease; enzyme activity, inhibitor): 23.2 µM

CC1=C(c2ccccc2)C1C(=O)NCc1nc(-c2ccc(Cl)cc2)no1 (stereo not shown)
IC50 (rep main protease; enzyme activity, inhibitor, FRET): 21.2 µM
